Measurements of several laboratories.
Numbered parts are unrelated; each lists some results of a single study. Positions count from the first letter of the parent shown.

Sample 1
Target: Sal-like protein 4, full length isoform B (SALL4, Homo sapiens, UniProt Q9UJQ4-2, residues 1-616)
Technique: universal PBM
Molecule type: double-stranded DNA, one strand shown
Sample: in vitro
Tested at: not given
Notes: 8-mer, flanks averaged, mean of replicates
Direction: higher = stronger binding
Residues (chain): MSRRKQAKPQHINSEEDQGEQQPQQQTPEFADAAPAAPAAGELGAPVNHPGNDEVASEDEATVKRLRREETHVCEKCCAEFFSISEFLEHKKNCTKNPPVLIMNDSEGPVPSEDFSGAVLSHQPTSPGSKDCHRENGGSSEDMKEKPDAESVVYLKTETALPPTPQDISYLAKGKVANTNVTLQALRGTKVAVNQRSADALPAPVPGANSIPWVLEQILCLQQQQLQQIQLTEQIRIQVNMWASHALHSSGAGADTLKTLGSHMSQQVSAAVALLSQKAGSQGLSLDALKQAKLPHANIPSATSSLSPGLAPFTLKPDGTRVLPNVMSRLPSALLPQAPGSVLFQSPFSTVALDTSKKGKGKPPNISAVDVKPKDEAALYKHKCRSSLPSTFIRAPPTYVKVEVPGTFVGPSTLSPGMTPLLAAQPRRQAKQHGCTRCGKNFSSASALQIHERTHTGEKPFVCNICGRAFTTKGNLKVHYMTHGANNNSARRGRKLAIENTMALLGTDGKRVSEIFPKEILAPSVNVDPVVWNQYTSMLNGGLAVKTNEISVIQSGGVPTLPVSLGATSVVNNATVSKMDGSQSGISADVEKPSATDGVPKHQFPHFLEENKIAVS
Oligonucleotide	E-score
GGATGCAC	-0.197
CTTGGTTA	0.0885
CCGGATAA	0.0283
CCGGCTAC	-0.285
CCGTAGAC	-0.174
ATCGCAAT	0.055

Sample 2
Target: ABI1, truncated, D143A, DHFR fusion (Arabidopsis thaliana)
Technique: DHFR PCA, deep sequencing
Sample: yeast
Notes: methotrexate growth selection, single substitutions
With: (+)-ABA 0.0091 µM
Baseline: wild-type fitted maximum
Direction: higher = stronger binding
Starting sequence: PYL1, truncated, DHFR fusion (Arabidopsis thaliana); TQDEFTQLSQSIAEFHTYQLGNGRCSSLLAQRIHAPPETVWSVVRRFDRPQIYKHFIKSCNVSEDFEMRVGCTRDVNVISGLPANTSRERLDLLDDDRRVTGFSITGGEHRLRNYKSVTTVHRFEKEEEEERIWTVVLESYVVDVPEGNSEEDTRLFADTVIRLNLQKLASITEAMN
Substitution	relative binding score
R49I	4.73%
D96W	-2.95%
N61W	13.6%
Q7I	17.1%
A158Y	31.1%
R88H	52.5%

Sample 3
Target: Prothrombin, mature alpha-thrombin (F2, Homo sapiens, UniProt P00734)
Technique: aptamer microarray, sandwich
Molecule type: DNA with 2'F-ANA
Sample: in vitro
Tested at: 200 nM
Notes: whole 15-mer aptamer, many near background
With: Cy3 exosite-II aptamer, 400 nM
Direction: higher = stronger binding
Oligonucleotide: GGTTGGTGTGGTTGG
Modification	mean fluorescence intensity [a.u.]
2'F-ANA at 1 3 5 7 8 11 13	56.9
2'F-ANA at 2 8 9 10 12 13 14	94.5
2'F-ANA at 3 4 6 7 9 11 12 13	733
2'F-ANA at 2 3 6 8 12 13 15	809
2'F-ANA at 1 2 5 7 9 10 11 12 15	117
2'F-ANA at 1 2 4 6 7 11	85
2'F-ANA at 1 2 3 4 6 7 8 10 11 13 14 15	48.3

Mixed results
Substance	target	assay	test system	setting	scale	endpoint	result
PhoQ, residues 284 288 289 292 302 303 AAQSYM	PhoP, residues 12 14 15 18 19 VQGLL (Escherichia coli, UniProt P23836)	Sort-seq, refers to: YFP reporter	E. coli	PhoQ-PhoP variant library, with: 10 µM Mg2+	baseline: high Mg2+ state, higher = stronger signaling	fold induction	16.7

Repeated from above (sample 3):
Modification	mean fluorescence intensity [a.u.]
2'F-ANA at 2 8 9 10 12 13 14	94.5
2'F-ANA at 2 3 6 8 12 13 15	809
